Experimental data gathered from unrelated publications.
Each numbered part is a random draw from the data of one study; scales do not carry over between parts.

Study 1
Target: Interferon regulatory factor 5, full length, phosphomimetic (IRF5, Homo sapiens, UniProt Q13568-2, residues 1-514, S451D/S453D/S456D/S462D)
Method: protein-binding microarray
Molecule type: double-stranded DNA, one strand shown
Sample: in vitro
Concentration: 940 nM top
Notes: 60-bp whole probe
With: salmon DNA 0.4 mg/ml
Baseline: random background probes
Reading: higher = stronger binding
Shared flanks, not repeated: GCCTAGCAC … GTCTTGATTCGCTTGACGCTGCTG
| Oligonucleotide | fitted relative affinity |
| --- | --- |
| TTAGGACTTCTACTGCTTTAGTGCTAG | 0.231 z-score |
| TTAGATTTCAGTATCGATTGGTGCTAG | 5.75 z-score |
| GACGGTTGCGGTATCGGGACGTGCTAG | 2.2 z-score |
| GACGGTTTCGGTTCCGCGACGTGCTAG | 14.3 z-score |
| GTAGAACTGAGTTTCGATTAGTGCTAG | 7.49 z-score |
| GACTATTTCGGGACTGGAGACGTGCTA | 0.135 z-score |
| ATGGCAAAAAAAAAAGATTTGTGCTAG | -0.271 z-score |
| TTAGGACCGGGTCTCGGTTAGTGCTAG | 1.24 z-score |
| TTAGGTCGCGGTTTCGGTTAGTGCTAG | 6.96 z-score |
| GACGGTTTCGGTTTCCGGACGTGCTAG | 15.4 z-score |
| TGAGGTTTCGGTCTCGGTTAGTGCTAG | 12.2 z-score |
| GACGGTCTCCGTTTCCTGACGTGCTAG | 0.509 z-score |
| TAAGATTTCGGGACTGGATTAGTGCTA | 0.4 z-score |
| GACGTACTGAGTTTCGAGACGTGCTAG | 2.75 z-score |
| GACGGTTTCGGATCCGGGACGTGCTAG | 7.92 z-score |
| TTAGGACTGGGGACAGGGTTAGTGCTA | -0.0454 z-score |
| TTAGGATTGCTTATCCTTTAGTGCTAG | -0.368 z-score |
| GACGATCTCTGTCTCGAGACGTGCTAG | 0.728 z-score |
| TACGAACTGAGTCTCGAGACGTGCTAG | 1.08 z-score |

Study 2
Target: Protein C-ets-1 (ETS1, Homo sapiens, UniProt P14921, residues 1-441, K379A, full length assumed)
Method: protein-binding microarray
Molecule type: double-stranded DNA, one strand shown
Sample: in vitro
Concentration: not given
Notes: k-mer, scored over probes, only values ≥0.25
Reading: higher = stronger binding
Residues (chain): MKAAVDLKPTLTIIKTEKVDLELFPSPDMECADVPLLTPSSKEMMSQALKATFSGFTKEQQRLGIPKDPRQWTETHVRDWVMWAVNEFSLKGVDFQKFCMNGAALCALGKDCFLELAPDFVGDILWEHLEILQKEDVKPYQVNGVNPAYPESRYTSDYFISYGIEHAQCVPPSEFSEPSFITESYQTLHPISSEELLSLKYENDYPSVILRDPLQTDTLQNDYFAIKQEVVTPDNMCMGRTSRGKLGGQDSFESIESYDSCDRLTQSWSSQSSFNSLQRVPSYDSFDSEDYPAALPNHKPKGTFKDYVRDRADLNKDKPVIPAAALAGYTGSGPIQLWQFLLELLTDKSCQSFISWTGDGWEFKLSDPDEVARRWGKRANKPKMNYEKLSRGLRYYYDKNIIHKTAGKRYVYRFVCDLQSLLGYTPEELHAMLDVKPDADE
| Oligonucleotide | E-score |
| --- | --- |
| CCCGGTGC | 0.329 |
| ACAGTAAT | 0.273 |
| ATAATTTA | 0.347 |
| ACAGTTAA | 0.29 |
| CGGATACA | 0.275 |
| CGGAAGAC | 0.272 |
| CCGGTTCG | 0.324 |
| CCGGAACA | 0.4 |
| ATGATACC | 0.257 |
| GCCCCGGA | 0.313 |
| GCGGTACC | 0.308 |
| AAACCGGC | 0.325 |
| CGGGGTAA | 0.253 |
| CGCTTCCG | 0.286 |
| CGGATAAC | 0.267 |
| CGGTACAA | 0.312 |
| ACACATGA | 0.291 |
| CGGATATC | 0.338 |
| AACGGATA | 0.269 |
| TCCGTCAA | 0.3 |
| AAGCGCTT | 0.276 |
| ACCGGAGG | 0.358 |
| TACCACAA | 0.329 |
| CGGCACGA | 0.267 |
| ACCTGTCG | 0.286 |

Study 3
Target: Centromere-binding protein 1, full length, N-terminal tag (CBF1, Saccharomyces cerevisiae, UniProt P17106, residues 1-351)
Sequence of UniProt P17106 (whole entry, looked up): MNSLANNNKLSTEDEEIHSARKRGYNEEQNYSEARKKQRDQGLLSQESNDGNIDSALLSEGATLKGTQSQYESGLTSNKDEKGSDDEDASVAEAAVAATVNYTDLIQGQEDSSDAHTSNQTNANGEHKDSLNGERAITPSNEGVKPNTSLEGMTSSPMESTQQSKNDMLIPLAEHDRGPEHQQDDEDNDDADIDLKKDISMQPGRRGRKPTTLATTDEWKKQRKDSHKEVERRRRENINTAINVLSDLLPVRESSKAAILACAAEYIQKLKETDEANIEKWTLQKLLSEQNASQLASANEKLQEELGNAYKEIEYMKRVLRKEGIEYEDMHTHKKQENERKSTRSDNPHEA
Method: protein-binding microarray
Molecule type: double-stranded DNA, one strand shown
Sample: in vitro
Concentration: 0.8 µM
Notes: whole 60-bp probe, no competitor
Reading: higher = stronger binding
| Oligonucleotide | fluorescence intensity [a.u.] |
| --- | --- |
| GAACTAAACCTCTCACACGTTAATGTCGTGAAATAGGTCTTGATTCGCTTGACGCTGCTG | 553 |
| TGTACGAAGCTATTCACCGTGCCTATAGTAGTTAGGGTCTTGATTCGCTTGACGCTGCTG | 541 |
| GAATTATTCAAGTCTCATCATATGAAATTTCTTTAGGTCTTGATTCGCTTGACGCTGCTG | 480 |
| GAAGGATCTTTCTAACGTGTGTTGTCTACTAGTTAGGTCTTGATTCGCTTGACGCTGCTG | 537 |
| CTACACAATTCAAGTCACGTGGAAAGGCCTTCATTCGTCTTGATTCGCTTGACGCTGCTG | 15300 |
| GAATTCTTTCTGCATCACGGTGGGCCTTGCCCTTAGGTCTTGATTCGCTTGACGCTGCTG | 562 |
| CTAATAATGTCTTACCACCACACCCACACACATTTCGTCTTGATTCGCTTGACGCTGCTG | 555 |
| CTAACTATGACGCGTCACGAATTGTGCTAGAGTTTCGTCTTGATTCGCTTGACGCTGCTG | 535 |
| GAAGCTGATATATCTCGAGTCACCTTCAAAAATTAGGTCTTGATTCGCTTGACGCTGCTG | 548 |
| CTAATTTCTATAAGCCACCAGATATCAATAAAATTCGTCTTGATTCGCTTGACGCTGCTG | 535 |
| CTATGAAGGGTCGGTGACGTGGAAATTTTGACATTCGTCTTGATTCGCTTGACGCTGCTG | 546 |
| CTAGTGACAGAGTCTCAGGTGAAACAAATTAATTTCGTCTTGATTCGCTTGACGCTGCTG | 509 |
| CTAAGTGGTCGCACATACACCACCTTCTTTTTTTTCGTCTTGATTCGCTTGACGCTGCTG | 522 |
| TGTACGAAGCTATAATCCGTGCATATAGTAGTTAGGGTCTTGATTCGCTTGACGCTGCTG | 557 |
| TGTACGAAGCTATGTAACTTAATTATAGTAGTTAGGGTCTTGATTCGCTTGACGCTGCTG | 508 |
| GAAATTGATTGACTCTTCGTGATAACTATTTCTTAGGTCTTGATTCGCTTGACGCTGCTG | 536 |
| TGTACGAAGCTATGTGATCCAGTTATAGTAGTTAGGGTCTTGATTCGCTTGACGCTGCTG | 532 |
| GAATGTGCAGCACTGCATGTGCGAATGGTCCATTAGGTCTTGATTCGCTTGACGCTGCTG | 540 |
| CTATAGTAGCAGGGTGACATGTTACTCCCACACTTCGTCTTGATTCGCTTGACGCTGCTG | 525 |

Study 4
Target: RNA binding protein fox-1 homolog 2, RRM domain, GST-SBP tag (RBFOX2, Homo sapiens, UniProt O43251-10, residues 100-194)
Method: RNA Bind-n-Seq
Molecule type: RNA
Sample: in vitro
Concentration: 365 nM
Notes: natural RNA segment, single round, ends assumed
Baseline: no-protein control
Reading: higher = stronger binding
Residues (chain): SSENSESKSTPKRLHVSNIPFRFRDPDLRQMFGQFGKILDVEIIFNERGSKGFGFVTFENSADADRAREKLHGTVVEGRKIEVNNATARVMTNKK
| Oligonucleotide | RBNS enrichment (R) |
| --- | --- |
| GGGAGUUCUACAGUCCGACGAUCUCUGAGACCUUGAGGGACCCAGACCUUUGGGUCCAAGAGUUUCCCAAACAGCCACGCCUCUCAGGAACCCACCUGGCGGUUCCGUGAGCUCAGGCAGGCCUGACCCGGCGUGGAAUUCUCGGGUGCCAA | 0.358 |
| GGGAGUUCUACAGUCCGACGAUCAAUUUACUAUUUUUAAAAUAUUUUGCUGCUUCUGUUCUGGGUCUGAAUUCCCUUUUGUGCCAGAUGCCAGUACUGUCUGCCCAUUGGCUCCAGGGGCUGUAUGGGCAGAUUGGAAUUCUCGGGUGCCAA | 0.27 |
| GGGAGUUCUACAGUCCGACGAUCAAACCGGGCCGCCAGGAUCCCUCCCCGCGGCGGCGAUGGCCCGAGCCAUGAGAGUGAGGACUUUCCGCGCCCAUUGGUGACCCUUCCAGGCAGACAGCCUCAGCAACGCCUGGAAUUCUCGGGUGCCAA | 0.19 |
| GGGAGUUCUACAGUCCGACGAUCUCAAGACAUUUCCACUGCAGUUUCAAGCUGUAGUGGGCAUAUGCUUCAUUUACUUCCAAAGAGGCAAAAGCAGCUGGAAUUGGCUUACAGCACAUGCUUUGUUUCAUGUUUGGAAUUCUCGGGUGCCAA | 0.465 |
| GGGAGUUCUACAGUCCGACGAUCGUCUCCAGUUACAACUCCGCAGUGGAUGUGAAGAAGCAAAAAAAAAAAAAUCUAUUCAGUCUACUCACAAAACAGUACAUUGUGGAAUAUUAUGGGGAAUUGUACCAAAAUGGAAUUCUCGGGUGCCAA | 0.641 |
| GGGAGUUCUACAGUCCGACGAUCUAUUCCAAGUCUCUGGUUUCCUAAGAUACAUAAUAACUGUUUAUAAAGAAGGUCUAAGAGCUGAUAUUUGCCAAAGUGAUAGAAGAGUUGUUUUUUCCUCUCUACUACCAUGGAAUUCUCGGGUGCCAA | 0.445 |
| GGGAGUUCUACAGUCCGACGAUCUCUUUGCGCCCUUCCCGGCUGCUGCCUGGGGCCCUUUCCUGCUCUCCCGUCCGCUGUGGGUGGUCCCCAGCUCUCCUCUGUGGGUUUUACCGGAAAGGUGGCCCCAGCUGUGGAAUUCUCGGGUGCCAA | 0.413 |
| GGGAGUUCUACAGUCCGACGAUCUGUGGGUUGGGUUCGUACCAGCAAGUAGACUAGGAACUGAGCCCAGGAAAGGGGGAUGUUUUCCUGGUGUUUGGAUGGUCAGCUGGGAGUGUCCAUCAUCAGGGGAAGAUUGGAAUUCUCGGGUGCCAA | 0.716 |

A few entries again (study 2):
| Oligonucleotide | E-score |
| --- | --- |
| AACGGATA | 0.269 |
| ATAATTTA | 0.347 |
| CGCTTCCG | 0.286 |
| AAGCGCTT | 0.276 |
| ACAGTTAA | 0.29 |
| ACCGGAGG | 0.358 |
| ACCTGTCG | 0.286 |
| CGGATATC | 0.338 |
